Measurements from different studies.
A part holds a random share of what one study measured. Changes are numbered by the printed parent chain.

Study 1
Target: Prothrombin, mature alpha-thrombin (F2, Homo sapiens, UniProt P00734)
Method: aptamer microarray, sandwich
Molecule type: DNA with 2'F-ANA
Sample: in vitro
Concentration: 200 nM
Setting: whole 15-mer aptamer, many near background
With: Cy3 exosite-II aptamer, 400 nM
Reading: higher = stronger binding
Endpoint: mean fluorescence intensity
Oligonucleotide: GGTTGGTGTGGTTGG
2'F-ANA at 2 3 7 10 11 12 14: 313 a.u.
2'F-ANA at 1 2 5 6 7 8 11 13 15: 56.7 a.u.
2'F-ANA at 2 3 7 8 11 12 14 15: 498 a.u.
2'F-ANA at 2 4 6 12 13 14: 108 a.u.
2'F-ANA at 1 2 3 5 6 7 8 10 11 13 14 15: 58.5 a.u.
2'F-ANA at 2 6 7 9 11 12 13 15: 343 a.u.
2'F-ANA at 2 3 9 11 13 15: 588 a.u.
2'F-ANA at 2 3 4 5 6 7 8 11 13 15: 71.4 a.u.
2'F-ANA at 1 2 5 7 9 10 13 15: 47.1 a.u.
2'F-ANA at 1 3 4 5 6 7 8 9 10 11 12 14: 52.5 a.u.
2'F-ANA at 1 2 5 8 10 11 13 14 15: 50.2 a.u.
2'F-ANA at 2 4 8 9 10 12 13 14 15: 58.9 a.u.
2'F-ANA at 1 3 7 8 11 12 14: 138 a.u.

Study 2
Target: CCND1, cyclin fold, Cln2 fusion (human)
Method: yeast growth competition, sequencing
Sample: yeast
Setting: weak parent motif
Baseline: not given
Reading: higher = stronger binding
Endpoint: normalised enrichment score
Parent: MASTL docking peptide (human); PMIAKNLMCELDE
M2C: 0.218
L11Y: 0.327
L11S: 0.107
I3D: 0.0836
M8R: 0.0984
M8T: 0.0841
N6L: -0.325
L11H: 0.342

Study 3
Target: Hepatocyte nuclear factor 3-alpha (Foxa1, Mus musculus, UniProt P35582, residues 1-468, full length assumed)
Chain of UniProt P35582 (whole entry, looked up): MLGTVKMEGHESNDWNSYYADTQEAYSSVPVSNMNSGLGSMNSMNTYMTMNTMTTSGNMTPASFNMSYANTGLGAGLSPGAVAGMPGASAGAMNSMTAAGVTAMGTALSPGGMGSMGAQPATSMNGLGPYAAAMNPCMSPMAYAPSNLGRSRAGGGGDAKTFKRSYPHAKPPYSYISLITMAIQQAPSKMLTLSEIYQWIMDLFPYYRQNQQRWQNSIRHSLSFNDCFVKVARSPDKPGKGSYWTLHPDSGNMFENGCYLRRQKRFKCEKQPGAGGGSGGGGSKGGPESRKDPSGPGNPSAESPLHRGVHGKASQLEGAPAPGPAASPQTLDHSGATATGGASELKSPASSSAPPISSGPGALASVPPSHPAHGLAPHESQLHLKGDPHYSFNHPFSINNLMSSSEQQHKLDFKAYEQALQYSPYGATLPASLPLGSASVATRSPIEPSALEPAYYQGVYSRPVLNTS
Method: EMSA with sequencing
Molecule type: double-stranded DNA, one strand shown
Sample: in vitro
Concentration: 10 and 20 nM
Setting: whole designed probe, mean of two concentrations, ends assumed
Baseline: negative control set to 0
Reading: higher = stronger binding
Endpoint: normalised bound fraction
GTGAGCGGTGCCCATTGATGGGGAACACTTCCCCACTTCCATGTTGCAATTCCCTTCTCCAATAATGGGAAATTTGGTCTCATTATCCTCAATATGGCTATGTCTTTGCTCAATTTACTTGTTTGCTTAATGTAACCAGCATCCCAACTGCACTGGCTGCCTCTGTCTGCTGCTTCCACACTTTCCTCCTTTTCACTTCCTCAGACTTGGGGCATGCTGTTTCACTGGGATCGTGGGGAC: 0.305 ratio
GTGAGCGGTGCCCATTGATGGGGAACCCATATTAAGCCATAAATGTGAGTTGCTGTAAAATAAAAAGTAATAAAGTATTTAAAGAGAAAATAATTTCTGTTGAGATTTTAAAGTTTTTCCTGTTTACATTGTTAGTCAATAAATATCTTTAATTCAAAGGTTAAGTTTATAGGATAATCCTCCTTGAGAAGGGAAGGCATATCTAAGTGTTAACAAAAATTTCACTGGGATCGTGGGGAC: 0.305 ratio
GTGAGCGGTGCCCATTGATGGGGAACAACAGAAACAGGCCAGCCAAATTACACAAGGACGTTTACTACAAAAACCTGAACCAGTGAGTAGCAATAAAGGGCTAGTTAAAAAGACTTCGGAAATTACATAGAACATGAATATGTGCATTATAAAGTTTGAGGTAGATCTATTTATGCCACTGTGGAATGATCTCGAAGATAAATAACTGACAAGCAAGACTTTCACTGGGATCGTGGGGAC: 0.133 ratio
GTGAGCGGTGCCCATTGATGGGGAACATCTTCCCCCTCTTCCTTGCCCCACCAGCTCACCTTCCCGGGTTATTTGCACAAAGGAAAATAAATAAAGCCGGCATTCGTTAACGCAGTTCTGGCGCAAACTGCTGTTTGCTCTGCATGAATCATGGTCCTTACGCGAGGCGTGGCTCCGGGAGAGCAAAGCACCGTGTCAGGCGCATGATCCGGGGTGGCCTTTCACTGGGATCGTGGGGAC: 0.381 ratio

Further values, each from its own experiment
PhoQ, residues 284 288 289 292 302 303 AEGLLW  fold induction (PhoP, residues 12 14 15 18 19 TPLRH (Escherichia coli, UniProt P23836); Sort-seq, measured: YFP reporter; E. coli; PhoQ-PhoP variant library, with: 10 µM Mg2+; baseline: high Mg2+ state, higher = stronger signaling): 0.805

Some of these lines once more (study 2):
M2C: 0.218
